Assay results gathered from unrelated publications.
Protocols differ between the studies behind these lines. ± gives the spread as reported.
Cell line: MDA-MB-231

SMILES	test	conditions	how to read	quantity	result
Cc1cc(NS(=O)(=O)c2ccc(NC(=O)/C(C#N)=C/c3ccc(N4CCCC4)cc3)cc2)no1	cytotoxicity, MTT	–	reference: HSF over MDA-MB-231 IC50	selectivity index	> 1.83
CC(C)(C)OC(=O)CC[C@H](NC(=O)c1cc(Cl)ccc1OCCNC(=O)OC(C)(C)C)C(=O)Nc1ccc([N+](=O)[O-])cc1Cl	–	up to 10 µM, 72 h	–	antiproliferative activity	inactive
O=C(NCc1ccc(CNS(=O)(=O)c2ccc3c(c2)CCO3)cc1)c1cccnc1	Matrigel invasion	0.1 µM, 22 h, added: CXCL12α 200 ng/mL	–	inhibition	> 60%
Nc1ccccc1NC(=O)c1ccc(CNc2ccc(NC3=C(Cl)C(=O)c4cccnc4C3=O)cc2)cc1	annexin V/PI staining, measured: annexin V+/PI+	8 µM, 72 h	–	late apoptotic cells	2.75%
COc1ccc(S(=O)(=O)ON=C2C=C(C)C(=O)C(C)=C2)cc1	flow cytometry	10 µM, 24 h	reference: DMSO	sub-G1 cells	increased
CC(C)[C@H](NC(=O)c1cc(Cl)ccc1OCCNC(=O)OC(C)(C)C)C(=O)Nc1ccc([N+](=O)[O-])cc1Cl	Western blot	1, 5, 10 µM, 48 h	–	Bax activation	increased
Cc1[nH]c2ccccc2c1C1=C(Cl)C(=O)C(Cl)=C(N2CCOCC2)C1=O	PI flow cytometry	10 µM	–	G1 phase cells	16.5%
Cc1c(Cc2ccccc2)c(=O)oc2c(C)c(OCC(=O)NN=Cc3ccc(Cl)cc3)ccc12	cell viability, MTT	–	–	IC50	78.5 µM
CCn1cc(-c2cc(Cn3ccnc3)cc3c2CCN([C@H](c2cc(OC)ccn2)C2CC2)C3=O)c(C(F)(F)F)n1	cell growth, inhibitor	120 h	–	EC50	> 30 µM
CCCCN1CCN(c2ccc3[nH]c(-c4ccc5[nH]c(-c6ccc(OCC)cc6)nc5c4)nc3c2)CC1	SRB	10 µM, 48 h	–	growth percent	111%
CCCNC(=O)[C@H]1O[C@@H]1C(=O)N[C@H](C(=O)N1CCC[C@H]1C(=O)OC)[C@@H](C)CC	cell viability, MTT	4 h, dark	–	EC50	> 100 µM
CCCOc1ccc2c(C)c(CC)c(=O)oc2c1C	cell viability, MTT	–	–	IC50	808 µM
Cc1cc(=O)[nH]c(=O)n1Cc1cn(-c2cc3ccccc3oc2=O)nn1	NCI60 single dose screen	10 µM	–	growth percentage	98.7%
O=C1C[C@@H](c2ccc(O)cc2)Oc2cc(O)cc(O)c21	annexin V/PI	concentration not given, 48 h	–	apoptotic cells	19.3%
C#C[C@@]1(O)[C@@H](CO)O[C@@H](n2ccc3c(N)ncnc32)[C@@H]1O	cell growth, SRB	–	–	TGI	5.89 µM
CC[C@@]1([C@@H]2O[C@@H]([C@H]3O[C@@](O)(CO)[C@H](C)C[C@@H]3C)C[C@@H]2C)CC[C@H]([C@]2(C)CC[C@]3(C[C@H](O)[C@@H](C)[C@@H]([C@@H](C)[C@@H](OC)[C@H](C)C(=O)O)O3)O2)O1	flow cytometry	half IC50, 72 h	reference: DMSO	CD44+/CD24− cell reduction	~11%
C#C[C@@]1(O)[C@@H](CO)O[C@@H](n2cc(F)c3c(N)ncnc32)[C@@H]1O	cell growth, SRB	–	–	TGI	2.98 µM
COc1c(C)c(OC)c(C(=O)/C=C/c2ccccc2)c(OC)c1C	–	–	reference: CL over MDA-MB-231	selectivity index	0.63
C=C1CN(S(=O)(=O)c2ccc(C)cc2)CCCN(CCc2ccccc2)CCCN(S(=O)(=O)c2ccc(C)cc2)C1.Cl	–	1 µM, 48 h, added: progranulin 1 µg/mL	–	mammosphere formation	inhibited

SMILES	test	conditions	how to read	quantity	result
Cc1cc(NS(=O)(=O)c2ccc(NC(=O)/C(C#N)=C/c3cccnc3)cc2)no1	cytotoxicity, MTT	–	reference: HSF over MDA-MB-231 IC50	selectivity index	> 1.09
COc1cccc2c1C(=O)c1c(O)c3c(c(O)c1C2=O)C[C@@](O)(C(=O)CO)C[C@@H]3O[C@H]1C[C@H](N)[C@H](O)[C@H](C)O1	annexin V/PI	concentration not given, 48 h	–	apoptotic cells	21%
Cc1cc(=O)[nH]c(=O)n1Cc1cn(-c2c3ccccc3nc3ccccc23)nn1	NCI60 single dose screen	10 µM	–	growth percentage	77.3%
O=P(O)(O)C(O)(Cn1ccnc1)P(=O)(O)O	AlamarBlue	3.8 µM, 24 h	reference: control	viability	97 ± 2%
OCc1ccc(Nc2ccc3c(Nc4cccc(C(F)(F)F)c4)ncnc3c2)cc1	–	IC50, 24 h	–	S phase cells	65.9%
CCOc1ccc(-c2nc3cc(-c4nc5cc(N6CCN(C)CC6)ccc5[nH]4)ccc3[nH]2)cc1OCC	SRB	10 µM, 48 h	–	growth percent	19.4%
COc1ccc(COC[C@@](O)(CNCc2ccc(F)cc2)[C@@H]2CC[C@@H](C)C[C@H]2OCc2ccc(OC)cc2)cc1	cell growth, inhibitor, MTT	72 h	–	IC50	1.91 µM
COc1c(C)c(OC(=O)c2ccc(C)cc2)c(C)c(O)c1C(=O)/C=C/c1ccccc1	–	–	reference: CL over MDA-MB-231	selectivity index	1.01
CO[C@H]1[C@H](O[C@H]([C@H]2O[C@@H](n3ccc(=O)[nH]c3=O)[C@H](O)[C@@H]2O)[C@H](NCCCNC(=O)[C@@H](NC(=O)[C@@H](NC(=O)N[C@H](C(=O)O)C(C)C)[C@@H]2CCN=C(N)N2)[C@@H](OC(=O)CCCCCCCCCCCCN(O)C(=N)N)C(C)C)C(=O)O)O[C@H](CN)[C@H]1O	Boyden chamber	0.4 µM, 24 h	reference: untreated	cell migration	< 45%
O=C(Nc1ccc2[nH]c(C(=O)NO)cc2c1)c1ccccn1	Matrigel invasion	concentration not given, 24 h	reference: DMSO	cell invasion	no effect
CCCC(=O)Oc1c(C)c(O)c(C(=O)/C=C/c2ccccc2)c(OC)c1C	–	–	reference: CL over MDA-MB-231	selectivity index	0.86
CCOc1ccc2c(C)c(CC)c(=O)oc2c1C	cell viability, MTT	–	–	IC50	765 µM
CC(C)[C@H](NC(=O)c1cc(Cl)ccc1OCCN)C(=O)Nc1ccc([N+](=O)[O-])cc1Cl	–	up to 10 µM, 72 h	–	antiproliferative activity	inactive
CCCCN1CCN(c2ccc3[nH]c(-c4ccc5[nH]c(-c6ccc(C(F)(F)F)cc6)nc5c4)nc3c2)CC1	SRB	10 µM, 48 h	–	growth percent	-88.9%
O=C(CCCCCCCC(=O)Nc1ccc(NC2=C(Cl)C(=O)c3cccnc3C2=O)cc1)NO	MTT	8 µM, 48 h	–	growth inhibition	23%
Cc1ccc(CNC(=O)Cn2cc(CSc3nc4ccccc4[nH]3)nn2)cc1	MTT	31.3 ppm	–	viability	12.4%
CCCN1CCN(c2ccc3nc(-c4ccc5nc(-c6cc(OC)ccc6OC)[nH]c5c4)[nH]c3c2)CC1	SRB	10 µM, 48 h	–	growth percent	107%
C=CCOc1c(C)c(O)c(C(=O)/C=C/c2ccccc2)c(OC)c1C	–	–	reference: CL over MDA-MB-231	selectivity index	0.81
COc1cccc(Oc2ccccc2NC(=O)CNC(=O)c2cccc3ccccc23)c1	SRB	48 h	–	GI50	0.776 µM

Repeated from above:
SMILES	test	conditions	how to read	quantity	result
C=C1CN(S(=O)(=O)c2ccc(C)cc2)CCCN(CCc2ccccc2)CCCN(S(=O)(=O)c2ccc(C)cc2)C1.Cl	–	1 µM, 48 h, added: progranulin 1 µg/mL	–	mammosphere formation	inhibited
Cc1cc(NS(=O)(=O)c2ccc(NC(=O)/C(C#N)=C/c3cccnc3)cc2)no1	cytotoxicity, MTT	–	reference: HSF over MDA-MB-231 IC50	selectivity index	> 1.09
COc1cccc2c1C(=O)c1c(O)c3c(c(O)c1C2=O)C[C@@](O)(C(=O)CO)C[C@@H]3O[C@H]1C[C@H](N)[C@H](O)[C@H](C)O1	annexin V/PI	concentration not given, 48 h	–	apoptotic cells	21%
